Measurements pooled from the literature.
Every numbered part comes from another study and shows a few of its results, in no order. Substitutions count along the parent as printed.

Sample 1 — method: protein binding microarray; molecule type: double-stranded DNA, one strand shown; medium: in vitro; concentration: not given; relative to: not given; reading: higher = stronger binding
Target: Histone acetyltransferase KAT6A, winged helix 1, GST fusion (KAT6A, Homo sapiens, UniProt Q92794, residues 1-85)
Setting: 8-mer, flanks averaged, mean of 2 arrays, mostly near background
Construct (chain): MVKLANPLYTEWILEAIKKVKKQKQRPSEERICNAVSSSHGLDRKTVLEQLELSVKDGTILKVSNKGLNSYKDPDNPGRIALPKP
| Oligonucleotide | E-score |
| --- | --- |
| GCACGCCA | 0.0979 |
| AGGCCACT | -0.0643 |
| TAAATACA | -0.102 |
| ATATGACC | 0.0369 |
| GCCCCAGA | -0.0469 |
| CGGGCGTC | 0.338 |
| AATGTGGA | -0.191 |
| CCGATAAC | 0.0913 |
| CGCGGCGC | 0.461 |
| AGAGAACC | -0.08 |
| GACAGCTA | -0.193 |
| AACGCTGT | -0.0505 |
| CAAACGCA | 0.0359 |
| AGTGACCC | -0.0453 |
| AGACTGGC | -0.0898 |
| CTTCCCGA | 0.142 |
| CCCTAGAG | -0.11 |
| AGTAACTG | -0.145 |
| AAGCGTCA | -0.00911 |
| CGAAAATA | 0.00996 |
| CACAGTCG | -0.0969 |
| CTTAGCTA | -0.167 |
| CGAAGCAC | -0.25 |
| CACGCGGC | 0.377 |
| GACGGTCC | 0.23 |

Sample 2 — target: JUND, bZIP domain (human); method: DHFR protein complementation; medium: yeast; relative to: wild-type JUN-FOS pair; reading: higher = stronger binding
Setting: single substitutions, most at no-binding floor
Starting sequence: JUN, bZIP domain (human); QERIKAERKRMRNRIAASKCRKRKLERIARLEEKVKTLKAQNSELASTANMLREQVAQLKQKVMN
| Change | binding fitness [natural log] |
| --- | --- |
| Q55N | -1.25 |
| R53I | -1.27 |
| L38T | -1.49 |
| N42L | -1.32 |
| S43P | -1.51 |
| R53L | -1.27 |
| N42E | -1.33 |
| L45R | -1.42 |
| E44P | -1.46 |
| N42C | -1.33 |
| V56W | -1.26 |
| V56E | -1.28 |
| E32D | -1.27 |
| L31W | -1.34 |
| A29P | -1.36 |
| L31C | -1.43 |

Sample 3 — method: RNA Bind-n-Seq; molecule type: RNA; medium: in vitro; concentration: 365 nM; relative to: no-protein control; reading: higher = stronger binding
Target: RNA binding protein fox-1 homolog 2, RRM domain, GST-SBP tag (RBFOX2, Homo sapiens, UniProt O43251-10, residues 100-194)
Setting: natural RNA segment, single round, ends assumed
Shared flanks, not repeated: GGGAGUUCUACAGUCCGACGAUC … UGGAAUUCUCGGGUGCCAA
Residues (chain): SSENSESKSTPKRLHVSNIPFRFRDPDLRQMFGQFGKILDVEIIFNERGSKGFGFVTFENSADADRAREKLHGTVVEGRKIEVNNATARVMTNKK
| Oligonucleotide | RBNS enrichment (R) |
| --- | --- |
| AGACUAAGGGAUGAGGACAUCUCUUUAUAAAAGGCCCCUAAGUAAUGGAUAAACAGAAACACUUAGAGGUGAGAAGGUCUGUCUUCAAGAUCCAAGGUAAGAUUGCCUUC | 0.294 |
| AUUCCUGCUUCAUUUCCUUUUCUCAAGGGCCGCUUCCCCGGACCCUCCUGUCAUAGGCCCCACUUGGUGCUAUUUGUGGUGCUGGCUCAGGCGUGGGGCUGCCAGGCUCG | 1.74 |
| GCGGUCCUAAUGCACAGUGACCAAUAUCCACAUAACCUCAUUUGCCUUCCAGAUGUUCAGAUAGUCAAAGCUUCUCUCUACCUUGUUUUCCCUCAAUGCAUGUAAUUAAA | 37.4 |
| CAUAUUUGCCUCCUUAUAUAUAUCAAAGACCAAGGUAUUUCCUUCUGCUUCAAAAGAACAAAAUUGGGAAAGAAAACUCACUUGAGUCUUGAUCAAACAAGUGUCUUUUA | 0.581 |
| GAGAAUCACUUGAACCUAGGAGGCGGAGGUUGCAGUGAGCCAAGAUGGCGCCAUUGCACUCCAGCCUGGGUGACAAGAGUGAAACUCCAUCUCAAAAAAAAAGAAAAGAA | 0.326 |
| UGUUGUAACACUGAGGUAUCUCAUUUGCCCAUGUUAAUUUUUUUCUAAAUAAAUUGACAAAAACAAAGGUUUGGCGAAUUAGCUAUUUUGUGGAUGUUAAGGAGUGGUUU | 0.487 |
| GCAUUCAUGAGGUUGGAGAGACUAUGAGAAAUAUGUAUAGUGUAUAUUUUAAACAGCUUUGCUUGUAUUGUGAAGAUUUAAGAACAAACUUGAGAUUUUUAAAGUUAACU | 0.948 |
| UUCAAAUGUCACCAAUAAAAGUUUUGGCAGGAAGCUUGUUGCGGCAUUGAUCUAACCUUUUUCCCCCCCAUUUCAGUUGCAGUUUUUGUAGAAUGGCUUUUUCUUUUUCC | 1.53 |
| CUACAAAAAAAGUUUAUGUUUAGUUUGGUAGAGGUGUUAUGUAUAAUGCUUUGUUAAAGAACCCCCUUUCCGUGCCACUGGUGAAUAGGGAUUGAUGAAUGGGAAGAGUU | 2.2 |
| AGCUUGGGAGAAAGGAACUGGAAGAACAUGAAAAAGCAGGGGCAUGUGUAGACAUUAGUGAAAAUUAACAAUGCACGUUAUUUGCAAAUGUCAGCAAUUAUCUGUACAUG | 12.4 |
| AUGGGGAGGGAAGAGGAGGAGAGGGGAGGGGACCUGCCCCCUCCUCAGGCAUCUGGGAGGGCCCUGCCCCCAUGGGCUUUACCCUUCCCUGCGGGCUCUCUCCCCGACAC | 0.233 |
| CCUGCAUGGCUACACACCUGGCUCAGUGCCUCCUCCAGAUCCCCUCCUGAGGCUGCCCCAAGGCCUACGGGUUAAAGCCAAUAGCUGCUCACAUGCAACAACGGAAGGAG | 1.83 |

Sample 4 — target: UBE2B UBC core domain (UniProt P63146); method: yeast two-hybrid; medium: yeast; setting: mostly zero background; relative to: not given; reading: higher = stronger interaction
Sequence of UniProt P63146 (whole entry, looked up): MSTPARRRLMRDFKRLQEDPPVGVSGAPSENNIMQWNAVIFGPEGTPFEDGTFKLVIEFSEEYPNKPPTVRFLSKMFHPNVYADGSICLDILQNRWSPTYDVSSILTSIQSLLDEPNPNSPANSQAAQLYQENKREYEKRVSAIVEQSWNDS
B1: DEF8 RING domain (UniProt Q6ZN54); chain AGRLGCSLTEIHTLFAKHIKLDCERCQAKGFVCELCREGDVLFPFDSHTSVCADCSAVFHRDCYYDNSTTCPKCARLSLRK
B2: TRIM31 RING domain (UniProt Q9BZY9); chain FVNKLQEEVICPICLDILQKPVTIDCGHNFCLKCITQIGETSCGFFKCPLCKTSVRKNAIRF
B3: TRIM60 RING domain (UniProt Q495X7); chain ALVNLQEESSCPICLEYLKDPVTINCGHNFCRSCLSVSWKDLDDTFPCPVCRFCFPYKSFRR
B4: ANAPC11 RING domain (UniProt Q9NYG5); chain GICRMAFNGCCPDCKVPGDDCPLVWGQCSHCFHMHCILKWLHAQQVQQHCPMCRQEWKFKE
B5: MKRN2 RING domain (UniProt Q9H000); chain FAFQASQDKVCSICMEVILEKASASERRFGILSNCNHTYCLSCIRQWRCAKQFENPIIKSCPECRVISEFVIPSV
B6: RNF122 RING domain (UniProt Q9H9V4); chain AKKLQLYGQTCAVCLEDFKGKDELGVLPCQHAFHRKCLVKWLEVRCVCPMCNKPIASPSEAT
B7: MEX3B RING domain (UniProt Q6ZN04); chain SGLRRKGSRDCSVCFESEVIAALVPCGHNLFCMECANRICEKSEPECPVCHTAVTQAIRIF
B8: TRIM26 RING domain (UniProt Q12899); chain PLRSLEEEVTCSICLDYLRDPVTIDCGHVFCRSCTTDVRPISGSRPVCPLCKKPFKKENIRP
B9: RNF187 RING domain (UniProt Q5TA31); chain ALPAGPAEAACALCQRAPREPVRADCGHRFCRACVVRFWAEEDGPFPCPECADDCWQRAVEP
B10: RNF166 RING domain (UniProt Q96A37); chain GDSGLEAQYTCPICLEVYHRPVAIGSCGHTFCGECLQPCLQVPSPLCPLCRLPFDPKKVDK
B11: RNF31 RING domain (UniProt Q96EP0); chain AFLRRLLAQECAVCGWALPHNRMQALTSCECTICPDCFRQHFTIALKEKHITDMVCPACGRPDLTDDTQLL
| Sequence | lacZ reporter activity |
| --- | --- |
| B1 (DEF8 RING domain) | 0 |
| FVKTVEDKYKCEKCHLVLCSPKQTECGHRFCESCMAALLSSSSPKCTACQESIVKDKVF (TRAF3 RING domain (UniProt Q13114)) | 0 |
| B2 (TRIM31 RING domain) | 0 |
| B3 (TRIM60 RING domain) | 0 |
| PEELAVNNDDCAICWDSMQAARKLPCGHLFHNSCLRSWLEQDTSCPTCRMSLNIADNNR (AMFR RING domain (UniProt Q9UKV5)) | 0 |
| MNDVLENELQCIICSEYFIEAVTLNCAHSFCSYCINEWMKRKIECPICRKDIKSKTYSL (RNF8 RING domain (UniProt O76064)) | 0 |
| B4 (ANAPC11 RING domain) | 0 |
| B5 (MKRN2 RING domain) | 0 |
| B6 (RNF122 RING domain) | 0 |
| B7 (MEX3B RING domain) | 0 |
| B8 (TRIM26 RING domain) | 0 |
| B9 (RNF187 RING domain) | 0 |
| RYRQMEERITCPICIDSHIRLVFQCGHGACAPCGSALSACPICRQPIRDRIQIF (MIB2 RING domain (UniProt Q96AX9)) | 0 |
| B10 (RNF166 RING domain) | 0 |
| B11 (RNF31 RING domain) | 0 |
| LGTKLEAKYLCSACRNVLRRPFQAQCGHRYCSFCLASILSSGPQNCAACVHEGIYEEGIS (TRAF2 RING domain (UniProt Q12933)) | 0 |

Sample 5 — method: DHFR PCA, deep sequencing; medium: yeast; with: (+)-ABA 17 µM; relative to: wild-type fitted maximum; reading: higher = stronger binding
Target: ABI1, truncated, D143A, DHFR fusion (Arabidopsis thaliana)
Setting: methotrexate growth selection, single substitutions
Starting sequence: PYL1, truncated, DHFR fusion (Arabidopsis thaliana); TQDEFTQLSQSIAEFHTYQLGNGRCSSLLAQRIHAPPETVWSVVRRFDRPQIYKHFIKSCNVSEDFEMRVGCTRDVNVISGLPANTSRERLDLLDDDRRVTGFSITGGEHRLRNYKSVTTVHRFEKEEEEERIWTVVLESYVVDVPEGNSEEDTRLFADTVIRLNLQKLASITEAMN; partner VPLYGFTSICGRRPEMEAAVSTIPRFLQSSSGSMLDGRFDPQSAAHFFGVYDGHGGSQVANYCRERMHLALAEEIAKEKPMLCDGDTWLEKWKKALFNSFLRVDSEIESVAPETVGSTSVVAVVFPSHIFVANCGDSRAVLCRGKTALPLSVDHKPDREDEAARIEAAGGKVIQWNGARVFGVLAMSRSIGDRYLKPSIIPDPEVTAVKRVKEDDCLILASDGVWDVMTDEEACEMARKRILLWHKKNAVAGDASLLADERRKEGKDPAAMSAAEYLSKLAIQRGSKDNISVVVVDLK
| Change | relative binding score [%] |
| --- | --- |
| S104G | 0.199 |
| L166A | 6.24 |
| L94K | -1.84 |
| I52T | 87.4 |
| V62L | 79.7 |
| D153N | 6.53 |
| V142Y | 34.9 |
| L8S | 15.5 |
| L20R | 83 |
| T120K | 1.91 |
| E67P | 71.9 |
| P36W | 33.5 |
| E127Q | 95 |
| R49L | 55.8 |
| Y115K | 8.12 |
| M68Q | 59.4 |
| V40R | 0.995 |
| I133S | 96.6 |
| D48E | 65.6 |
| D48T | 3.12 |
| G102L | -4.51 |
| S104E | 3.63 |
| E139V | 77.3 |
| D65S | 75.9 |
| E64M | 70.1 |

Repeated from above (sample 2):
| Change | binding fitness [natural log] |
| --- | --- |
| R53I | -1.27 |
| L38T | -1.49 |
| N42L | -1.32 |
| S43P | -1.51 |
| R53L | -1.27 |
| N42E | -1.33 |
| L45R | -1.42 |
| E44P | -1.46 |
| N42C | -1.33 |
| V56W | -1.26 |
| V56E | -1.28 |
| E32D | -1.27 |
| L31W | -1.34 |
| A29P | -1.36 |
| L31C | -1.43 |
